Experimental data from different studies.
Several values in a cell are separate wells, animals, samples, runs or records.

The viability of `CNC(=S)N/N=C/c1ccc(OCc2ccccc2)cc1` is reported as 85.3% (IMR-32; MTT; 100 µg/mL, 24 h; reference: untreated control).
With `Cc1ccc(N2CCC3(CC2)CN(C)C3)cc1C(=O)N[C@H](C)c1cc(-c2cnn(C)c2)nc2ccccc12` the viability was 96.1% and 94.5% and 98.9% (Vero E6; 7.812 µM).
The viability of `NC(=O)N/N=C/c1ccc(OCc2cccc(F)c2)cc1` is reported as 49.7% (IMR-32; MTT; 300 µg/mL, 24 h; reference: untreated control).
With `CNC(=O)C[C@H](Cc1ccc(F)cc1)NC(=O)[C@@H](Cc1ccc(Cl)cc1Cl)NC(=O)[C@H](N)Cc1ccccc1[N+](=O)[O-]` the viability was 0.981 and 1.05 and 1 (Huh-7-ACE2; CellTiter-Glo; 0.000191 µM, 48 h, unit not given; reference: DMSO).
With `CCCCCCCCCCCCCCCC(=O)OCC(CSC[C@H](N)C(=O)NCC(=O)N[C@@H](CC(=O)O)C(=O)N1CCC[C@H]1C(=O)N[C@@H](CCCCN)C(=O)N[C@@H](Cc1c[nH]cn1)C(=O)N1CCC[C@H]1C(=O)N[C@@H](CCCCN)C(=O)N[C@@H](CO)C(=O)N[C@@H](Cc1ccccc1)C(=O)O)OC(=O)CCCCCCCCCCCCCCC` (stereo partly shown) the viability was 100% (HFF-1; 10 µg/mL, 48 h).
The viability of `CCOc1ccc(CN2CC[C@H]2C(=O)NC)cc1-c1cccc(C(=O)NC[C@@H]2COC(C)(C)O2)c1` is reported as 1 and 1.12 and 1.06 (Huh-7-ACE2; CellTiter-Glo; 0.0977 µM, 48 h, unit not given; reference: DMSO).
For `CCCCCCCCCCCCCCCC(=O)N[C@@H](CSCC(COC(=O)CCCCCCCCCCCCCCC)OC(=O)CCCCCCCCCCCCCCC)C(=O)N[C@@H](CO)C(=O)N[C@@H](CCCCN)C(=O)N[C@@H](CCCCN)C(=O)N[C@@H](CCCCN)C(=O)N[C@@H](CCCCN)C(=O)O` (stereo partly shown), the viability was 96.9% (HFF-1; 1 µg/mL, 48 h).
`Cc1ccc(OCCN(C)C)cc1C(=O)N[C@H](C)c1cc(-c2cncs2)nc2ccccc12` has a viability of 98.7% and 110% (Vero E6; 3.906 µM).
For `CNC(=O)C[C@H](Cc1ccccc1)NC(=O)[C@@H](Cc1ccc(Cl)cc1Cl)NC(=O)[C@H](N)Cc1ccccc1C#N`, the viability was 1.1 and 1.04 and 0.971 (Huh-7-ACE2; CellTiter-Glo; 0.000191 µM, 48 h, unit not given; reference: DMSO).
With `CCn1ccc(-c2cc([C@@H](C)NC(=O)c3cc(OC[C@H]4CCCN4C)ccc3C)c3ccccc3n2)n1` the viability was 0.312% and 0.938% and 0.156% (Vero E6; 250 µM).
`CCCCCCCCCCCCCCCC(=O)OCC(CSC[C@H](N)C(=O)N[C@@H](CO)C(=O)N[C@@H](CCCCN)C(=O)N[C@@H](CCCCN)C(=O)N[C@@H](CCCCN)C(=O)N[C@@H](CCCCN)C(=O)O)OC(=O)CCCCCCCCCCCCCCC` (stereo partly shown) has a viability of 91.2% (HFF-1; 1 µg/mL, 48 h).
With `O=c1n(CCNCCOS(=O)(=O)c2ccccc2)c(=O)n(S(=O)(=O)c2ccccc2)c(=O)n1S(=O)(=O)c1ccccc1` the viability was 62.7% (HUVEC; cell growth or viability, MTT; 50 µg/mL, 24 h).
For `CCn1ccc(-c2cc([C@@H](C)NC(=O)c3cc(N4CCN(C)[C@H](C)C4)ccc3C)c3ccccc3n2)n1`, the viability was 98.3% and 99.5% and 95% (Vero E6; 7.812 µM).
For `NC(=S)N/N=C/c1ccc(OCc2ccccc2)cc1`, the viability was 92.5% (IMR-32; MTT; 50 µg/mL, 24 h; reference: untreated control).
`CNC(=O)C[C@H](Cc1ccc(F)cc1)NC(=O)[C@@H](Cc1ccc(Cl)cc1Cl)NC(=O)[C@H](N)Cc1ccccc1C#N` has a viability of 1.02 and 0.996 and 1.03 (Huh-7-ACE2; CellTiter-Glo; 0.00153 µM, 48 h, unit not given; reference: DMSO).
`Cc1ccc(OCCN(C)C)cc1C(=O)N[C@H](C)c1cc(-c2ccnn2C)nc2ccccc12` has a viability of 0% and -2.11% (Vero E6; 250 µM).
